Experimental data collected from several papers.
Each numbered part is a random draw from the data of one study; scales do not carry over between parts. Substitutions count along the parent as printed.

Series 1 — technique: DHFR PCA, deep sequencing; medium: yeast; with: (+)-ABA 710 µM; baseline: wild-type fitted maximum; reading: higher = stronger binding; quantity: relative binding score
Target: ABI1, truncated, D143A, DHFR fusion (Arabidopsis thaliana)
Notes: methotrexate growth selection, single substitutions
Starting sequence: PYL1, truncated, DHFR fusion (Arabidopsis thaliana); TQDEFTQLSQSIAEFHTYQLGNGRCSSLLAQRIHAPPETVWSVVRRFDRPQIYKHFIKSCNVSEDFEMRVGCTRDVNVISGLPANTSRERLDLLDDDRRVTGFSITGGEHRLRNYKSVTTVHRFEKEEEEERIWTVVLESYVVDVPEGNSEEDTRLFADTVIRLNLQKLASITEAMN
Variant = I133G; value = 115%
Variant = L138W; value = 42.6%
Variant = V76L; value = 98.8%
Variant = R98Q; value = 108%
Variant = R90L; value = 83.4%
Variant = E38G; value = 97.6%
Variant = R98S; value = 108%
Variant = E4Q; value = 95.9%
Variant = N177I; value = 97.6%
Variant = I162M; value = 58%
Variant = E174P; value = 81.8%
Variant = C25L; value = 92.1%
Variant = L169P; value = 0.502%

Series 2 — technique: RNA Bind-n-Seq; molecule type: RNA; medium: in vitro; tested at: 1 µM; notes: whole 134-nt RNA, ends assumed; with: 150 mM KCl; baseline: input library; reading: higher = stronger binding; quantity: log2 enrichment
Target: Ras GTPase-activating protein-binding protein 1, RRM domain (G3BP1, Homo sapiens, UniProt Q13283)
Chain of UniProt Q13283 (whole entry, looked up): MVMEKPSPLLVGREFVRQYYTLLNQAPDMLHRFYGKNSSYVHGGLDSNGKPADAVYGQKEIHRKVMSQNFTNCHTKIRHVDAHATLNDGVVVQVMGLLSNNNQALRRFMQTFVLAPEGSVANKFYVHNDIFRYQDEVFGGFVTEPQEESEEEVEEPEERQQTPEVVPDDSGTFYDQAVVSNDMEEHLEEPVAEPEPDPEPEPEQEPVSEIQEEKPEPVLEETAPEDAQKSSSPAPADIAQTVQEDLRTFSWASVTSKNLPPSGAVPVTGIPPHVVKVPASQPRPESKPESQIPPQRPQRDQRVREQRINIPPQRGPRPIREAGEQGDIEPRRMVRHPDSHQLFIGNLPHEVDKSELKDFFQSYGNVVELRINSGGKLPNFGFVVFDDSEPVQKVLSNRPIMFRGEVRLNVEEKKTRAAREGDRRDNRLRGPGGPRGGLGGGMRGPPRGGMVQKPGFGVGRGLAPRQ
Strand = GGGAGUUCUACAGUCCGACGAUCUCCUGUGCUACACAUCGUAUGUACCGAAUCGGGGAGGGGAAAAAGGGGUUUUUUUGGGGAAAGUAUUAUGUUACGCCGUUCGGAUCUGCAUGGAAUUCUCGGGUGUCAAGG; value = 0.774
Strand = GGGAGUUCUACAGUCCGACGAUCAGUCCUGUGCUACACAUCGUAUGUACCGAAUCGGGGAGGGGAAAGGGGUUUUUGGGGAAAGUAUUAUGUUACGCCGUUCGGAUCUGCACUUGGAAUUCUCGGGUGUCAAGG; value = 1.18
Strand = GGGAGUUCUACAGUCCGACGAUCAAGUCCUGUGCUACACAUCGUAUGUACCGAAUCGGGGAAAAAGGGGAGGGGAGGGGAAAGUAUUAUGUUACGCCGUUCGGAUCUGCACUUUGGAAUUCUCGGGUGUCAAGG; value = 0.869
Strand = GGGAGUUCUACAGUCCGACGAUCAAGUCCUGUGCUACACAUCGUAUGUACCGAAUCAAAUUUAAACCCAAAUUUUUAAAAAAGUAUUAUGUUACGCCGUUCGGAUCUGCACUUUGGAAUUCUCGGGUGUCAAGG; value = -0.131
Strand = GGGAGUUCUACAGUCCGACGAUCUGUGCUACACAUCGUAUGUACCGAAUCGGGGUUUUUUUGGGGUUUUUGGGGAAAAAAAGGGGAAAGUAUUAUGUUACGCCGUUCGGAUCUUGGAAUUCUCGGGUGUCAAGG; value = 1.13
Strand = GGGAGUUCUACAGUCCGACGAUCAGUCCUGUGCUACACAUCGUAUGUACCGAAUCGGUUUUGGGGUUUUGGGUUUUGGGGAAAGUAUUAUGUUACGCCGUUCGGAUCUGCACUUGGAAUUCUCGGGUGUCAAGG; value = -0.106
Strand = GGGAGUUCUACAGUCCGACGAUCUCCUCAAGUCCUGUGCUACACAUCGUAUGUACCGAAUCGGGUGGGUGGUGGGAAAGUAUUAUGUUACGCCGUUCGGAUCUGCACUUCCAGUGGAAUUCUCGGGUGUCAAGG; value = 0.263
Strand = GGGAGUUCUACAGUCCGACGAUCGCAGGAAGUAAAAACAAAUGGAAAUGCUUCGGAUAGUGGCAGGGGUGGGGGUUGCAAAGGAAAGGGUGGGAUGGGAGUGGGUAAAGAGUUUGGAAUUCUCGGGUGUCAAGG; value = 1.26
Strand = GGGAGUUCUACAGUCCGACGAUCUUACCGACACCGUAGAACAGAGCAAGAGGAGGAUGAAGAGCUAUUAACAGAAAGCUCCAAAGCAACCAAUGUUUGCACUCGAUUUGAAGAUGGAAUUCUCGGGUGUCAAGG; value = -0.053
Strand = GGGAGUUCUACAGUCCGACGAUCGUCCUGUGCUACACAUCGUAUGUACCGAAUCAAACCCAAACCCCCAAAUUUUUUUAAAAAAGUAUUAUGUUACGCCGUUCGGAUCUGCACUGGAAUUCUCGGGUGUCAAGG; value = -0.482

Series 3 — target: CCNB3, cyclin fold, Cln2 fusion (human); technique: yeast growth competition, sequencing; medium: yeast; notes: weak parent motif; baseline: not given; reading: higher = stronger binding; quantity: normalised enrichment score
Starting sequence: CDC25A docking peptide (human); PPHRRRLLFACSP; partner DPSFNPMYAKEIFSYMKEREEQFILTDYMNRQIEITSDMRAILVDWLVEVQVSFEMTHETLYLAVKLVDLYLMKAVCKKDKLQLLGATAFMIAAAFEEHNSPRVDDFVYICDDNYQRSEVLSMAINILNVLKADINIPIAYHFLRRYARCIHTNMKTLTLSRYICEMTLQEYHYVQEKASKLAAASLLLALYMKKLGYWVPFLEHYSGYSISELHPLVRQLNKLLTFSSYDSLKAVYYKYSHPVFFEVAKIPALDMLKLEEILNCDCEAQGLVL
Variant = PPHRRRLLLACSP [F9L]; value = 0.182
Variant = PPHRERLLFACSP [R5E]; value = 0.0446
Variant = PPHRRRLLFACRP [S12R]; value = 0.196
Variant = PPHRRRLLFACGP [S12G]; value = 0.415
Variant = PPHRRRLKFACSP [L8K]; value = 0.278
Variant = PPHRRRLLFYCSP [A10Y]; value = -0.395
Variant = PPHRRRLLKACSP [F9K]; value = -0.0989
Variant = PPHRRRLLFACSM [P13M]; value = -0.0394
Variant = PPHRRRQLFACSP [L7Q]; value = -0.0979
Variant = PPHRRRRLFACSP [L7R]; value = 0.289
Variant = PPHRRRLLCACSP [F9C]; value = -0.171
Variant = PPHRRRLLFACCP [S12C]; value = 0.157
Variant = PPHRRRLLFACIP [S12I]; value = 0.429
Variant = PPHRRWLLFACSP [R6W]; value = 0.687
Variant = PPHRRRHLFACSP [L7H]; value = 0.00134
Variant = PPHRRRLLFNCSP [A10N]; value = 0.211
Variant = PPHRRRLLFMCSP [A10M]; value = 0.423
Variant = PPHRRRLLFDCSP [A10D]; value = 0.215
Variant = PPHRRRVLFACSP [L7V]; value = 0.0703
Variant = PPHRRRLIFACSP [L8I]; value = 0.227
Variant = PPHRRRLLFACSE [P13E]; value = 0.0274
Variant = PPHRRRLLFGCSP [A10G]; value = 0.0107
Variant = PPHRRRPLFACSP [L7P]; value = -0.0951
Variant = PPHRRRFLFACSP [L7F]; value = 0.375
Variant = TPHRRRLLFACSP [P1T]; value = 0.0992

Series 4 — technique: RNA Bind-n-Seq; molecule type: RNA; medium: in vitro; tested at: not given; notes: RNA with constant flanks, ends assumed; baseline: input RNA pool; reading: higher = stronger binding; quantity: bound/input enrichment
Target: RING finger protein unkempt homolog, zinc fingers 1-6, GST-SBP tag (UNK, Homo sapiens, UniProt Q9C0B0, residues 30-357)
Target sequence (chain): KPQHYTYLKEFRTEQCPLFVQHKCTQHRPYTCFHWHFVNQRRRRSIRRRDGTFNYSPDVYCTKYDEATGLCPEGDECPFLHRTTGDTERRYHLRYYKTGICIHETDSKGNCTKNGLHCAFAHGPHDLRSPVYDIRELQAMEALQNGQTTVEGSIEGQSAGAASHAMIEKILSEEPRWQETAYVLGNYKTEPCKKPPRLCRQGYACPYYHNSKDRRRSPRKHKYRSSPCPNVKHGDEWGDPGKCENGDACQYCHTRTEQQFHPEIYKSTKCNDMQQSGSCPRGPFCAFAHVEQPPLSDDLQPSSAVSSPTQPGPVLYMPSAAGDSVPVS
Strand = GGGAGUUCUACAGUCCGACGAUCUUCCGCCACAUGAGAAACCAUGCUUAUGAGCCGCUCGCCAGCUUCCUGGACUUCAUAACUUACCGCUACAUGAUUGACAACGUGAUCCUGCUAAUCACAGGCACACUGCACCAGCGUUCACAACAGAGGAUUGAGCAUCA; value = 0.14 ratio
Strand = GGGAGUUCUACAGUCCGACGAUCUCUUUCAAGAAUACAUAUCCUAAAGAUGAAGCACAUGUCUCAGAUGAAUUCUCCAAAAGCCGGUCCAGUGUAUCUAAGGUGCCCUUAUUGCUUCCAAAUGUUUCUGCUUUGGAAUCUCAACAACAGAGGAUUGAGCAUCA; value = 0.132 ratio
Strand = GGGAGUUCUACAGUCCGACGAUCCCUUAGGUAACCCUGGUCUGACUAACUAAAGACUUCCCCUCAUGUCACUCCUGGUGUAUACCGGUCACUGCCAAGAAGUUCUGCUCCAUCAUUGGCCUUGCCCUUCUCUAUGUCACCAAGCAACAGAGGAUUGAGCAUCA; value = 0.19 ratio
Strand = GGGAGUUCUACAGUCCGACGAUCAGCAAUCCAGAUCUCUAUGGCCCCUUUUGGAUAUGUGCCACGUUGGUCUUUGCCACCGCAAUCCGUGGGAAUCUUUCCAACUUCUUGAUCCAUCUGGGAGAGAAGACGUACCAUUAUGUGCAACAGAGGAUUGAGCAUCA; value = 0.0943 ratio
Strand = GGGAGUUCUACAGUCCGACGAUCUGUAGAGCUAAUGUUUACCUUCUUCCGACCGGGAAAAUAGUUUAUUUCAUUGCAUCAGCCGCCGUACUAUUUAAUUAUGAGGAGAGAACUCAGCGACACUACCUGGGCCAUACAGACUGUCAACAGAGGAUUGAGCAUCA; value = 3.46 ratio
Strand = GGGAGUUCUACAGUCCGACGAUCGAGCCCUAUGGCUUCCGCUCCUCAAUGCUAUUUGAUACAAUGCAACAUCAUCUGGCCUUGAACCGAGAUUUGACUACAUCUAGUGUGGAGAAAGACAGCGGAGGGAAGACACCCGGAGACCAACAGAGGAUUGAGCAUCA; value = 0.12 ratio
Strand = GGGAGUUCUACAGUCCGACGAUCAGUAGGAAAAUCACCGUUCUGCAAGUGAACGAGAAGUCCCUCAUCCGGCAGUACACCACCUCCGUGGAGAUGGAGCGGCACCUGAGAAAGGAAAACGGGAAACACAGGAAUGACGUCAUACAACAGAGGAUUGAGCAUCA; value = 0.134 ratio

Series 5 — technique: universal PBM; molecule type: double-stranded DNA, one strand shown; medium: in vitro; tested at: not given; reading: higher = stronger binding; quantity: E-score
Target: Sal-like protein 4, full length isoform B (SALL4, Homo sapiens, UniProt Q9UJQ4-2, residues 1-616)
Notes: 8-mer, flanks averaged, mean of replicates
Target sequence (chain): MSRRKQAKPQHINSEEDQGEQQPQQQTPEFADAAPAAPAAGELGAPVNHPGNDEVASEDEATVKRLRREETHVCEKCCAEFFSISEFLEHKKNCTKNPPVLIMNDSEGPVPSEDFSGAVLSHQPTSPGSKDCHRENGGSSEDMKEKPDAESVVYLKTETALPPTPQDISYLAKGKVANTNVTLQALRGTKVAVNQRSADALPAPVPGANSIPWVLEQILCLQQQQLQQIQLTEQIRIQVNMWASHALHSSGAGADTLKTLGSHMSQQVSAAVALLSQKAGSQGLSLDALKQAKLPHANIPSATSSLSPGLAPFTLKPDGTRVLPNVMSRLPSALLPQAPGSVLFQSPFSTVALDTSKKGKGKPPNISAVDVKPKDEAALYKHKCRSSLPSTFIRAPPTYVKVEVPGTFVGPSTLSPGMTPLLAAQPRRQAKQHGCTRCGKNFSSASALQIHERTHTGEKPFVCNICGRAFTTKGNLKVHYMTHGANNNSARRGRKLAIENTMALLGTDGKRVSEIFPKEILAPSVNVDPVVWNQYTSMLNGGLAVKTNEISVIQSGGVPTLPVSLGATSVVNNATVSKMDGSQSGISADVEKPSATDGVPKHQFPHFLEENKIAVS
Strand = ATCGTATC; value = 0.183
Strand = CTGACGTC; value = -0.0161
Strand = CCTAAAGG; value = -0.045
Strand = CGTCGCAC; value = -0.263
Strand = GAATAGGA; value = 0.152
Strand = AGCGTGCC; value = -0.237
Strand = GGAGGTTA; value = 0.0474
Strand = CACGGACC; value = -0.28
Strand = ATTGTTTA; value = 0.343
Strand = AACGTTTA; value = 0.144
Strand = GAGTCCGA; value = 0.0257
Strand = AAAGCCCG; value = -0.142
Strand = ACCGCGCG; value = -0.332
Strand = CACTTCCC; value = -0.22
Strand = GGCGAACC; value = -0.313
Strand = AGCTGCAT; value = 0.0321
Strand = CTCCTGGC; value = -0.183
Strand = AATTCGCA; value = 0.0556
Strand = CTGTTGCA; value = -0.0987
Strand = GTCTTCCA; value = -0.0464
Strand = GTTAAGTA; value = 0.147

A few entries again (series 5):
Strand = ATCGTATC; value = 0.183
Strand = CTGACGTC; value = -0.0161
Strand = CCTAAAGG; value = -0.045
Strand = CGTCGCAC; value = -0.263
Strand = GAATAGGA; value = 0.152
Strand = AGCGTGCC; value = -0.237
Strand = GGAGGTTA; value = 0.0474
Strand = CACGGACC; value = -0.28
Strand = ATTGTTTA; value = 0.343
Strand = AACGTTTA; value = 0.144
Strand = GAGTCCGA; value = 0.0257
Strand = AAAGCCCG; value = -0.142
